Experimental data pooled from the literature.
Compare with care: the assays were run in different laboratories. ± marks the error that the study gave.
UniProt O00329, sequence (whole entry, looked up): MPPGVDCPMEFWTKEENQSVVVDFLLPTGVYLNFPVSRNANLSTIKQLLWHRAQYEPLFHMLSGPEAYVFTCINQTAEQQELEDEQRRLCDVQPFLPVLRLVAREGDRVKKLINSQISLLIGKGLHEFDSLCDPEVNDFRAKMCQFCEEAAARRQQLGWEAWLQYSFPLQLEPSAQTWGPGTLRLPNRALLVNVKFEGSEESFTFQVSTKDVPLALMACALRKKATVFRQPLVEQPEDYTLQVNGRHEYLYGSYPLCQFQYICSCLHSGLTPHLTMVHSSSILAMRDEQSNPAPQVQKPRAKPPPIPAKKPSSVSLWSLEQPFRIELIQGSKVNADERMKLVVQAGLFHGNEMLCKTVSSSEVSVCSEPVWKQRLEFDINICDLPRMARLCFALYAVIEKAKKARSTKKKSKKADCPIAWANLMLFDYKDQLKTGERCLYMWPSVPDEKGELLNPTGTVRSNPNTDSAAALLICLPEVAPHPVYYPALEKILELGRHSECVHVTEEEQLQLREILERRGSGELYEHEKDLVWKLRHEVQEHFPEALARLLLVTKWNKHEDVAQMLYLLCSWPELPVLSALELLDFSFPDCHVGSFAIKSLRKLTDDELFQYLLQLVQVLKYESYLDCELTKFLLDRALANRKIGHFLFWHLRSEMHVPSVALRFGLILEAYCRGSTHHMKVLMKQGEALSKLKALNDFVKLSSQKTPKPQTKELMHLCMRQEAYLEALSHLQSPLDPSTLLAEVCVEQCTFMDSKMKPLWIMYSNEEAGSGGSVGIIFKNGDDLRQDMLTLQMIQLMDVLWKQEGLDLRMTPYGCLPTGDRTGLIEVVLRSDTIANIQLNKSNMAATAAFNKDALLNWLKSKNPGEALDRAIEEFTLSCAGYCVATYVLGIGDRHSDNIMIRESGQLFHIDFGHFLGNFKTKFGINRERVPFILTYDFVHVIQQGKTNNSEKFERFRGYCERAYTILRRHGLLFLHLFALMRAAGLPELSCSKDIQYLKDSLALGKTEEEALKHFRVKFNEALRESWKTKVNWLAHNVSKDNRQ

SMILES	target or system	assay	system	conditions	measurement	result
F[P-](F)(F)(F)(F)F.OC(Cn1cncn1)(Cn1cc(-[c-]2cccc2)nn1)c1ccc(F)cc1F.[Co+3].c1cc[cH-]c1 (racemic)	Brugia pahangi	worm motility, Worminator	–	50 µM, adult females	inhibition	> 50%
CCCCCCCCCCCCCCCC(=O)N[C@@H](CCC(=O)NCCOCCOCCC(=O)NCCOCCOCCC(=O)NCCCC[C@H](NC(=O)[C@H](CC(=O)O)NC(=O)[C@H](CC(C)C)NC(=O)[C@H](Cc1ccc(O)cc1)NC(=O)[C@H](CCCCN)NC(=O)[C@H](CO)NC(=O)[C@H](Cc1ccc(O)cc1)NC(=O)[C@H](CC(=O)O)NC(=O)[C@H](CO)NC(=O)[C@@H](NC(=O)[C@H](Cc1ccccc1)NC(=O)[C@@H](NC(=O)CNC(=O)[C@H](CCC(N)=O)NC(=O)[C@@H](CO)NC(=O)[C@@H](N)Cc1c[nH]cn1)[C@@H](C)O)[C@@H](C)O)C(=O)N[C@@H](CCCNC(=N)N)C(=O)N[C@@H](CCCNC(=N)N)C(=O)N[C@@H](C)C(=O)N[C@@H](CCC(N)=O)C(=O)N[C@@H](CC(=O)O)C(=O)N[C@@H](Cc1ccccc1)C(=O)N[C@H](C(=O)N[C@@H](CCC(N)=O)C(=O)N[C@@H](Cc1c[nH]c2ccccc12)C(=O)N[C@@H](CC(C)C)C(=O)N[C@@H](CC(C)C)C(=O)N[C@@H](CC(N)=O)C(=O)N[C@H](C(=O)NCC(=O)NCC(=O)N1CCC[C@H]1C(=O)N[C@@H](CO)C(=O)N[C@@H](CO)C(=O)NCC(=O)N[C@@H](C)C(=O)N1CCC[C@H]1C(=O)N1CCC[C@H]1C(=O)N1CCC[C@H]1C(=O)N[C@@H](CO)C(N)=O)[C@@H](C)O)C(C)C)C(=O)O	–	–	rhesus monkey, male, plasma	subcutaneous, 60 µg/kg, day 28, toxicokinetics, mean	AUC(0-t)	369 ng·h/mL
CNCc1ccc2c(c1)N(C(=O)OCc1c(F)c(F)c(F)c(F)c1F)[C@H](CNC(=N)N)[C@H]2NC(=O)C(=O)Nc1ccc(Cl)c(F)c1	Human immunodeficiency virus 1	viral infection, Env pseudovirus	TZM-bl, 231965.c01 clade D	–	IC50	502 nM
CC(=O)NCCN(CC(=O)NCCN(CC(=O)NCCN(CC(=O)NCCC(N)=O)C(=O)[C@@H](N)CCCNC(=N)N)C(=O)[C@@H](N)Cc1ccccc1)C(=O)[C@@H](N)Cc1ccccc1	HIV-1 TAR RNA	–	–	concentration not given, 25 °C	binding entropy term TΔS°	-3.73 ± 0.143 kcal/mol
CNCc1ccc2c(c1)C[C@H](CNC(=N)N)[C@H]2NC(=O)C(=O)Nc1ccc(Cl)c(F)c1	Human immunodeficiency virus 1	viral infection, Env pseudovirus	TZM-bl, ZM53M.PB12 clade C	–	IC80	> 100000 nM
CC(=O)NCCN(CC(=O)NCCN(CC(=O)NCCN(CC(=O)NCCC(N)=O)C(=O)C[C@@H](N)CCCNC(=N)N)C(=O)C[C@@H](N)CCCCN)C(=O)C[C@@H](N)Cc1ccccc1	HIV-1 TAR RNA	–	–	concentration not given, 25 °C	binding entropy term TΔS°	-2.58 ± 0.215 kcal/mol
C[C@H](Nc1ncnc(N)c1C#N)c1c(-c2ccccc2)[nH]c2c(Cl)cccc2c1=O	Phosphatidylinositol 4,5-bisphosphate 3-kinase catalytic subunit delta isoform (PIK3CD, Homo sapiens, UniProt O00329)	phosphorylation in cells, inhibitor, AlphaScreen	–	–	IC50	3.32 nM

Excerpt of the above:
SMILES	target or system	assay	system	conditions	measurement	result
CCCCCCCCCCCCCCCC(=O)N[C@@H](CCC(=O)NCCOCCOCCC(=O)NCCOCCOCCC(=O)NCCCC[C@H](NC(=O)[C@H](CC(=O)O)NC(=O)[C@H](CC(C)C)NC(=O)[C@H](Cc1ccc(O)cc1)NC(=O)[C@H](CCCCN)NC(=O)[C@H](CO)NC(=O)[C@H](Cc1ccc(O)cc1)NC(=O)[C@H](CC(=O)O)NC(=O)[C@H](CO)NC(=O)[C@@H](NC(=O)[C@H](Cc1ccccc1)NC(=O)[C@@H](NC(=O)CNC(=O)[C@H](CCC(N)=O)NC(=O)[C@@H](CO)NC(=O)[C@@H](N)Cc1c[nH]cn1)[C@@H](C)O)[C@@H](C)O)C(=O)N[C@@H](CCCNC(=N)N)C(=O)N[C@@H](CCCNC(=N)N)C(=O)N[C@@H](C)C(=O)N[C@@H](CCC(N)=O)C(=O)N[C@@H](CC(=O)O)C(=O)N[C@@H](Cc1ccccc1)C(=O)N[C@H](C(=O)N[C@@H](CCC(N)=O)C(=O)N[C@@H](Cc1c[nH]c2ccccc12)C(=O)N[C@@H](CC(C)C)C(=O)N[C@@H](CC(C)C)C(=O)N[C@@H](CC(N)=O)C(=O)N[C@H](C(=O)NCC(=O)NCC(=O)N1CCC[C@H]1C(=O)N[C@@H](CO)C(=O)N[C@@H](CO)C(=O)NCC(=O)N[C@@H](C)C(=O)N1CCC[C@H]1C(=O)N1CCC[C@H]1C(=O)N1CCC[C@H]1C(=O)N[C@@H](CO)C(N)=O)[C@@H](C)O)C(C)C)C(=O)O	–	–	rhesus monkey, male, plasma	subcutaneous, 60 µg/kg, day 28, toxicokinetics, mean	AUC(0-t)	369 ng·h/mL
